Published values pooled from the literature.
Each numbered part is a random draw from the data of one study; scales do not carry over between parts.

Sample 1 — technique: protein-binding microarray; molecule type: double-stranded DNA, one strand shown; matrix: in vitro; tested at: 0.8 µM; setting: whole 60-bp probe, no competitor; reading: higher = stronger binding; constant ends, left off below: … GTCTTGATTCGCTTGACGCTGCTG
Target: Centromere-binding protein 1, full length, N-terminal tag (CBF1, Saccharomyces cerevisiae, UniProt P17106, residues 1-351)
UniProt P17106, sequence (whole entry, looked up): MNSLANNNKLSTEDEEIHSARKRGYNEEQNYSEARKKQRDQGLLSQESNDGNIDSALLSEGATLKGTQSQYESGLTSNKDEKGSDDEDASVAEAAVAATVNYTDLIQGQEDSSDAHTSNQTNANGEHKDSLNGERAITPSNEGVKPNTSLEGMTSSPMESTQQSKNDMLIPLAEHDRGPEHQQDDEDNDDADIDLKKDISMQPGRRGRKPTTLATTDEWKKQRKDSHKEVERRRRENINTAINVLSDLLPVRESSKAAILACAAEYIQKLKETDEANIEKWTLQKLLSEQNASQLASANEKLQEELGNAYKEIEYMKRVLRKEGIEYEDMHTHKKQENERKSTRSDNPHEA
Sequence | fluorescence intensity [a.u.]
GAATTAGGAGAGCGTGGTGTTCTCATCCTACTATAG | 599
CTAGTAAAAGTACGGCACGTGACCTTCCTGGTATTC | 22800
GAAAAATCCAAGCGAAACACCACGCAAACACAATAG | 518
GAAACCGTCGCTGTGCACGTGACACTCACTTCATAG | 20900
CTAATAAGCCATTCTGATGTTATCTTCTTGTACTTC | 498
GAAAACACCCGAAGTTGCGTGTCCCCCTCACGTTAG | 509
GAATCACGACCCGCGGGTGAGCCCACACTCACCTAG | 503
TGTACGAAGCTATACATCGTGATTATAGTAGTTAGG | 713
GAACTAACGACACGGCACGTGATTACTGATCTGTAG | 11100
GAAGAAGAAGGACGTCACCCCTGCATTCCCAAATAG | 502
CTACTGTCTTCTGCCCACGTCATATGAGTGGTATTC | 723
CTAAATTCACTACGTGACATGATTGGTTGGTGCTTC | 851
TGTACGAAGCTATGTAGAGTCACTATAGTAGTTAGG | 563
CTATTGACGCGTCAGAACGTGTGTTTTAGGAATTTC | 522
TGTACGAAGCTATACATCGTGCATATAGTAGTTAGG | 533
CTAGTCATTCACAGACACGTTTAACAAAACACCTTC | 666
TGTACGAAGCTATGGGGCATGACTATAGTAGTTAGG | 572
GAATAAGAAGGTGATCAGGTAGTTCGTCATTCGTAG | 542
CTATTATTATGATCGCTCGTGACGGATCGTCTTTTC | 1050
CTACATTCCGCTCATCATCACTAATATTGCTCTTTC | 576
CTACAAATTTAACATCATGCCGGCATTGAATCATTC | 574

Sample 2 — technique: protein-binding microarray; molecule type: double-stranded DNA, one strand shown; matrix: in vitro; tested at: not given; reading: higher = stronger binding
Target: Hepatocyte nuclear factor 3-beta, forkhead domain (FOXA2, Homo sapiens, UniProt Q9Y261, residues 142-269)
Setting: k-mer, scored over probes, only values ≥0.25
Construct (chain): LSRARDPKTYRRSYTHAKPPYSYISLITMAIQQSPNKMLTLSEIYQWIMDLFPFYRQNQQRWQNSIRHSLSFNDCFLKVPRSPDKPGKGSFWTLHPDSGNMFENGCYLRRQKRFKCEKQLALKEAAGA
Sequence | E-score
AATCGTAT | 0.29
AGATATCA | 0.305
AATATCTC | 0.264
AAATACTA | 0.296
ATTCAGTA | 0.252
CATTATAC | 0.314
CACATACA | 0.316
AATTATTC | 0.281
TAATTATA | 0.325
ATAAATAA | 0.282
AAAAACGA | 0.294
ACACTTAT | 0.322
ACGTAACA | 0.288
AAATATAA | 0.362
GTTACACA | 0.301
ACCAACTA | 0.256
GAATACTA | 0.259
ATACATCG | 0.251
AGTACTAA | 0.254
CATATACA | 0.42
ATGTGGTA | 0.279
TATGTGGA | 0.306
AATATGTC | 0.311
ACAATAAA | 0.337
GTTAGACA | 0.297

Sample 3 — technique: RNA Bind-n-Seq; molecule type: RNA; matrix: in vitro; tested at: 365 nM; relative to: no-protein control; reading: higher = stronger binding
Target: RNA binding protein fox-1 homolog 2, RRM domain, GST-SBP tag (RBFOX2, Homo sapiens, UniProt O43251-10, residues 100-194)
Setting: natural RNA segment, single round, ends assumed
Constant ends, left off below: GGGAGUUCUACAGUCCGACGAUC … UGGAAUUCUCGGGUGCCAA
Construct (chain): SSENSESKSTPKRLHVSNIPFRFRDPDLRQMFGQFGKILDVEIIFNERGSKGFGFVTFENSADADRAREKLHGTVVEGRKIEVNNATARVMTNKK
Sequence | RBNS enrichment (R)
CAGAGGCAUAGGUUACCACCCCCACCCCGGCCCGGGAUACUGCCCCCGGCCCAGAUCCUGGCCGUCUCAUCCCAUACUUCUGUGGGGAAUCAGCCUCCUGCCACCCCCCC | 0.357
ACAGACAUACCAUAGGGGUAAGGAACUGAAUGCUGUAAAGGAGUCGGUUCUCAUCUCAGGUUGGUAUCUUUCAUCCAGUCCAAAAUGCAAGCGGCACUAAUGAAUUGUUC | 0.694
AAUUACAUCAAAGGGCAACCUGCGCUUUCUCCAAUAAGUCUGAGUGGUUCUCUUGAGCUGGUGUCACUUUCUAACCUUUGCCAGUCUAGCCCCAGCAGGGCACCGUGUGU | 0.49
GUGAAAACUUAACGCUUUUUGGAAGACAUUUCUGUAGCAUGUCAGUUUGGAGAAAUGAUGAGCUACGCCUUGAUGAAAGAACCGUGUUGGUGCUGCUAAGUUUAGCCAUU | 2.32
CCUUGUAAUUGUCUCUGACCUUUUUAUCUGAGACCGGAAUUCAGGAUAGGAGUCUAGAUAUUUACCUGAUACUAAUCAGGAAAUAUAUGAUAUCCGUAUUUAAAAUGUAG | 0.379
AAAAAAAGCAUCUAGGAUAAAUAUAAAAAUUUCAUCAUGUCUGAGUGGUUGCUCUGCUAAAAUAAGGGGCAUUUAAAAGCCAAAUGUAACCAUGGGAUUCAGAAGAGCAC | 0.776
GCACUCCUUUCAAGGGUGUUGGCAAGGCCCUCAUUGAUACUCUCCUGGAUGGAUAUGAGACAGCCCGCUAUGGGACAGGGGUCUUUGGCCAGAGUGAGUACUUACGAUAU | 0.732
ACCUGCCCUCUCUCCGGAUCAUUUUUCUAGAGCAAGCAGGCCAGACUUCAUCCUGCCUUUGUCUUCGAAGCUAUCAGGGAACUGCGGGGUCCCAAAUAUGAUAAUCACGU | 0.399
CAUGGAAGGGAGGCAGCUCAGGGACCACCAUUGUGGAGCCUUUGAGACCUCUCUGAUUCAGAAACACACUUCUACCUCUUUACUGUUAACUCCAACAGAUGUAGCCAGCA | 0.882
GAGGACCUUUUACUAAAAGGUAGAAGACUUCAUGGCUUACUUGUUCCAUAACUCCAAGUGAGUCUGUAAUGUUUGUGAAGCUUGACUGUAACCAUGUUUUUUCUGUUUAA | 0.667
AAAUUGAAAAUUGCCUUGCAGAUAUUUAGGUACAAUGGAGUUUUCUUUUCCCAAACGGGAAGAACACAGCACACCCGGCUUGGACCCACUGCAAGCUGCAUCGUGCAACC | 1.84
AAAUCACAGCUUCUAGCUAGGCCAAAAUACUUACUCUACUGAUCUUCAAAAUAAAUGUAUUUCAUAAUUAUUGUGUGUUAAUUUUGACCUCAGAAAUGGAGAUAUGAUGC | 0.653

Sample 4 — technique: protein-binding microarray; molecule type: double-stranded DNA, one strand shown; matrix: in vitro; tested at: 940 nM top; setting: 60-bp whole probe; together with: salmon DNA 0.4 mg/ml; relative to: random background probes; reading: higher = stronger binding; constant ends, left off below: GCCTAGCAC … GTCTTGATTCGCTTGACGCTGCTG
Target: Interferon regulatory factor 5, full length, phosphomimetic (IRF5, Homo sapiens, UniProt Q13568-2, residues 1-514, S451D/S453D/S456D/S462D)
Sequence | fitted relative affinity [z-score]
TCACTTTCCACTTTCTTACTGTGCTAG | 2.9
TGCATTCCCTTTCTCAACCTGTGCTAG | 1.36
ATGGCTTTGCAGATAAATATGTGCTAG | -0.542
GACGGACTGTGTCTCGGGACGTGCTAG | -0.262
GACGTACTGGGGTTTCGGGACGTGCTA | 2.01
GACGGTTGCGACTATCGGGACGTGCTA | 0.545
GACGGTATCGGGTACCGGGACGTGCTA | 5.64
TTAGATCTCGGGACTGGATTAGTGCTA | 0.36
GAAGATATCGGGTTTCGAGACGTGCTA | 1.79
TCAGTTCTTAGCTTGGGACTGTGCTAG | -0.246
CTACGTCTGATTTTGCTTTCGTGCTAG | 0.961
TTAGATCTGAGACTGGATTAGTGCTAG | -0.193
TATGTTCCTTATTTAAGACCGTGCTAG | 0.339
TTAGGTCTCGGACTTGGTTAGTGCTAG | 0.917
ATAGAACTGAGACTGGATTAGTGCTAG | -0.00832
GACGATCTCAGTATCGCGACGTGCTAG | 0.69
TCAGCCCTCACCATCATACTGTGCTAG | 0.571
TTAGAACTGGGGTATCGGTTAGTGCTA | 2.86
GACGGTTTCGGTATCGGGGCGTGCTAG | 14.3
TTAGGTTTCGACACTGGGTTCGTGCTA | 8.56
TTAGCTCTCCTTATCCTTTAGTGCTAG | 0.852
TTAGGTATCGGGACTGGGTTCGTGCTA | 4.29

Some of these lines once more (sample 2):
Sequence | E-score
AATCGTAT | 0.29
AGATATCA | 0.305
AATATCTC | 0.264
AAATACTA | 0.296
ATTCAGTA | 0.252
CATTATAC | 0.314
CACATACA | 0.316
AATTATTC | 0.281
TAATTATA | 0.325
